# Experimental data of several laboratories.
# Values joined by “and” are separate records of one study, mostly repeats; a detail may differ. ± gives the spread as reported.
SMILES,target or system,assay,system,conditions,scale,measurement,value
O=C1c2sc(-c3ccc(N4CCC(CO)CC4)nc3F)nc2CCN1c1cccnc1,,,"CD1 mouse, brain","i.v., dose not given, 0.5 h",,concentration,11.2 ng/g
C/C(N)=N/C(=N\S(=O)(=O)c1ccc(C(F)(F)F)cc1)N1C[C@H](c2ccccc2)C(c2ccc(Cl)cc2)=N1,,,"male C57BL/6 mouse, plasma","intravenous, 10 mg/kg",,half-life,2.6 h
O=C1c2sc(-c3ccc(N4CCC(F)C4)nc3F)nc2CCN1c1cccnc1 (stereo not drawn),,,"CD1 mouse, brain","i.v., dose not given, 0.083 h",,concentration,344 ng/g and 444 ng/g and 448 ng/g
C=C(NC(=O)c1csc(-c2nc3c(cc2O)-c2nc(cs2)C(=O)NC(C(C)O)C(=O)NC(=C(C)OC)c2nc(cs2)C(=O)NC2c4nc(cs4)C(=O)NC(COC(=O)c4c5c6c(cccc6n4O)COC(=O)C(OC4CC(C)(O)C(N(C)C)C(C)O4)C2OC5)c2nc-3cs2)n1)C(N)=O (stereo not drawn),,,"cynomolgus monkey, female, plasma","intravenous infusion, 9 mg/kg single dose",,volume of distribution,2.04 L/kg
CCCCN1C(=O)c2cccc3c(NCCCCCCCCCCN4CCOCC4)ccc(c23)C1=O,,,dichloromethane,,,fluorescence quantum yield,0.99
CC[C@H](C)[C@@H]1NC(=O)[C@H](Cc2ccc(O)cc2)NC(=O)CCCSC[C@@H](C(=O)N(CC(=O)N[C@@H](CC(C)C)C(=O)NCC(N)=O)Cc2ccc(F)cc2)NC(=O)[C@H](CC(N)=O)NC(=O)[C@H](CCC(N)=O)NC1=O,,,"human, plasma","intravenous infusion, 20 µg, 25 min infusion, mean value",,terminal half-life,0.19 h
CN([O-])C(=O)CN1CCNCCN(CC(=O)N(C)[O-])CC1.[89Zr+4],,,"mouse, pancreas","intravenous, 24 h",,tracer uptake,0.05 %ID/g
OC1(C(F)(F)F)CCN(c2nc(Nc3ccnc(C(F)(F)F)c3)nc(-c3cccc(C(F)(F)F)n3)n2)C1 (stereo not drawn),,,"Sprague-Dawley rat, plasma","intravenous, 1 mg/kg",,C0,321 ng/mL
CCCCCCCOc1ccc(CC[C@](N)(CO)COP(=O)(O)O)cc1C(F)(F)F,,,"healthy men, urine and plasma","oral, 0.5 mg once daily, day 21, fed state",,renal clearance,0.0233 mL/min
COc1cc2ncnc(Oc3ccc(Nc4nccc5[nH]cc(-c6ccc(F)cc6)c(=O)c45)cc3F)c2cc1OC,,,"male cynomolgus monkey, plasma","oral, 3 mg/kg",,Tmax,4 h
CCOc1ccc(Nc2ncnc3[nH]c(/C=C/c4ccc(OC)c(OC)c4)nc23)cc1,,HPLC,"solution, dark",before light exposure,,purity,99.6%
CCCCCOc1ccc(-c2ccc3ncnc(Nc4ccc(OCc5cccc(F)c5)c(Cl)c4)c3c2)c(F)c1F,Leishmania major,"intracellular amastigote growth, luciferase",RAW264.7 macrophages,,,EC50,> 15 µM
Cc1nc(N)nc2c1C(=O)N[C@@H](c1ccc(F)cc1-c1cccc(O[11CH3])n1)C2,,ex vivo biodistribution,"mice, MDA-MB-231 subcutaneous xenograft, blood","60 min post-injection, baseline, vehicle pre-treatment",,tracer uptake,4 ± 0.1 %ID
N#C[C@@H]1CC(F)(F)CN1C(=O)CNC(=O)c1ccnc2c(NC(=O)C(CCCCNC(=O)CCOCCOCCOCCOCCOCCOCCNC(=O)CN3CCN(CC(=O)[O-])CCN(CC(=O)[O-])CCN(CC(=O)[O-])CC3)NC(=O)CCCc3ccc(I)cc3)cccc12.[68Ga+3] (stereo partly drawn),,,PBS,"30 min, 37 °C, 68Ga-labelled",,radiochemical stability,99.43 ± 0.9%
CCCN(C)c1cc(C(F)(F)F)nc(SCCC(=O)NCc2ccco2)n1,,,"Wistar rat, plasma","intraperitoneal, 25 mg/kg, 2 h post-dose",relative to: vehicle control,plasma urea,no effect
CN1CCN(S(=O)(=O)c2ccc(-c3ccc4ncnc(Nc5ccc(F)cc5)c4c3)cc2)CC1,Leishmania major,"intracellular amastigote growth, luciferase",RAW264.7 macrophages,,,EC50,> 15 µM
C=CC(=O)Nc1cc(Nc2nccc(-c3cn(C)c4ccccc34)n2)c(OC)cc1N(C)CCNC,,,"human, dried blood spots","10 d, room temperature, high QC level",,remaining compound,51.7%
CCCCN1C(=O)c2cccc3c(NCCN4CCOCC4)ccc(c23)C1=O,,,methanol,,,Stokes shift,81 nm
O=C(N/N=C/c1cc[n+](CC2CC2)c2ccccc12)c1ccc2ccc(C(=O)N/N=C/c3cc[n+](CC4CC4)c4ccccc34)nc2n1,hp2 hairpin duplex DNA,FRET melting,,1 µM,,ΔTm,1.3 ± 0.5 °C
COc1cc(-c2nc3ccccc3s2)cc(CN2CCN(Cc3cc(-c4nc5ccccc5s4)cc(OC)c3O)CCN(C(C)C)CC2)c1O,,UV-vis spectrophotometric titration,aqueous NaCl 0.1 M,"20 µM, 25 °C, pH 3 to 11",,pKa3,8.5
N[C@@H](CNC(=O)N[C@@H](CS)C(=O)NCC(=O)O)C(=O)O,,,"mouse C57BL/6, brain homogenate","intranasal, 10 mg per mouse, 2 h",,brain exposure per dose,66.5 ± 3.67 µM·h/dose
Cc1nc2cccc(OCC(C)(C)C(=O)NC(C)C)c2c(N)c1C(=O)[O-].[Na+],,,"male Sprague-Dawley rat, plasma","oral, 30 mg/kg",,Tmax,0.31 h
CC(C)(O)c1ncc([S@](N)(=O)=NC(=O)Nc2c3c(cc4c2CCC4)CCC3)s1,,item: Cardiac disorders,healthy human volunteers,"oral, dose not given, single dose, all active arms",,subjects with adverse events,2%
O=C(Nc1cnccc1-c1ccc([18F])cc1)c1ccnc(NC(=O)C2CC2)c1,,,"FVB/NJ mice, both sexes, brain","intravenous, 15 min, median, no P-gp inhibitor",,SUV,0.25
COc1cccc(OC)c1-c1cc(C(=O)NC2(C(=O)O)C3CC4CC(C3)CC2C4)nn1-c1ccc(C(=O)N(C)CCOCCOCCN(C)C(=O)[C@H](CCCCNC(=O)[C@H](CC(C)C)NC(=O)C2OC2C(=O)O)NC(=O)CN2CCN(CC(=O)[O-])CCN(CC(=O)[O-])CCN(CC(=O)[O-])CC2)cc1C(C)C.[177Lu+3] (mixture of isomers),,,mouse HT-29 xenograft,"168 h, biodistribution",relative to: tumour over stomach,tumour-to-stomach ratio,25.1
CC(=O)N([O-])CCCCCNC(=O)CCC(=O)N([O-])CCCCCNC(=O)CCC(=O)N([O-])CCCCCN.[89Zr+4],,radio-TLC,aqueous buffer,"7 d, pH 7.2, 37 °C, 89Zr-labelled complex, with: FeCl3 100-fold excess",,intact complex,33.8 ± 1.6%
COCC1CN(C2CCN(c3cc(OC)c(Nc4ncc(Br)c(Nc5ccc6c(c5P(C)(C)=O)OCCO6)n4)cc3C)CC2)C1,,first-in-human trial,human,"oral, 10 mg once daily",any treatment-related,adverse events,100%
O=C(N/N=C/c1cc[n+](Cc2ccccc2)c2ccccc12)c1ccc2ccc(C(=O)N/N=C/c3cc[n+](Cc4ccccc4)c4ccccc34)nc2n1,MYC parallel G4 DNA,FRET melting,,"1 µM, DNA 0.2 µM",,ΔTm,14.3 ± 0.6 °C
O=S(=O)(N[C@H]1CCO[C@@H](C2c3ccc(F)cc3CCc3cc(F)ccc32)C1)c1ccc(OC(F)(F)F)cc1,,,"mouse, brain","oral, 30 mg/kg, 2 h",,brain concentration,~2000 nM
O=C(Nc1cnccc1-c1ccc([18F])nc1)c1ccnc(NC(=O)C2CC2)c1,,ex vivo gamma counting,"FVB/NJ mice, both sexes, cortex","intravenous, 120 min, mean, P-gp inhibitor pretreatment, with: tariquidar 15 mg/kg iv",,SUV,0.072
CCCCN1C(=O)c2cccc3c(NCCCCCCCCN4CCOCC4)ccc(c23)C1=O,,,DMSO,,,Stokes shift,91 nm
[123I]c1ccc2nc(-c3ccc(-n4ccnn4)nc3)cn2c1,,,"male Wistar rat, liver","intravenous, 4 MBq, 24 h",,tracer uptake,0.032 %ID/g
CN(C(=O)C(C)(C)c1cc(C(F)(F)F)cc(C(F)(F)F)c1)c1cnc(N2C[C@H]3COCCN3C[C@H]2CO)cc1-c1ccc(F)cc1CO,,,human liver microsomes,,,fraction unbound in microsomes,0.466
COc1cc2c(cc1O)CCN1C[C@@H](CC(C)C)[C@@H](O)C[C@H]21,,item: non-deuterated analyte,"healthy human male, plasma","oral, 25 mg, geometric mean, [14C]-tetrabenazine dosed",,MRT(0-t),20.3 h
CC[C@H](C)[C@H](NC(=O)[C@H](Cc1ccc(O)cc1)NC(=O)[C@@H](NC(=O)[C@H](CCCNC(=N)N)NC(=O)[C@@H](N)CC(=O)O)C(C)C)C(=O)N[C@@H](Cc1c[nH]cn1)C(=O)N1CCC[C@H]1C(=O)O,,LC-MS/MS,"Sprague-Dawley rat, both sexes, plasma","subcutaneous, 10 mg/kg/day, day 0, 0.5 h, 30 min",,plasma concentration,11.7 ng/mL
CC(C)Cc1ccc(C(C)C(=O)N[C@@H](CCCCNC(=O)CCOCCOCCOCCOCCOCCOCCNC(=O)CN2CCN(CC(=O)[O-])CCN(CC(=O)[O-])CCN(CC(=O)[O-])CC2)C(=O)Nc2cccc3c(C(=O)NCC(=O)N4CC(F)(F)C[C@H]4C#N)ccnc23)cc1.[177Lu+3] (stereo partly drawn),,,PBS,"24 h, 37 °C, 177Lu-labelled",,radiochemical stability,98.9 ± 1.7%
C=CC(=O)Nc1cc(Nc2nccc(-c3c[nH]c4ccccc34)n2)c(OC)cc1N(C)CCN(C)C,,storage stability,human plasma,"30 d, on ice, MQC level",,recovery,52.2%
N#C[C@@H]1CC(F)(F)CN1C(=O)CNC(=O)c1ccnc2c(NC(=O)C(N)CCCCNC(=O)CCOCCOCCOCCOCCOCCOCCNC(=O)CN3CCN(CC(=O)[O-])CCN(CC(=O)[O-])CCN(CC(=O)[O-])CC3)cccc12.[68Ga+3] (stereo partly drawn),,,PBS,"60 min, 37 °C, 68Ga-labelled",,radiochemical stability,99.08 ± 0.6%
CN1CCC[C@]1(C)/C=C/S(=O)(=O)NC(=O)Nc1c2c(cc3c1CCC3)CCC2,,item: general and administration site disorders,human,"oral, 100 mg twice daily, 14 days, multiple ascending dose",,subjects with adverse event,0%

# Excerpt of the above:
SMILES,target or system,assay,system,conditions,scale,measurement,value
COc1cc(-c2nc3ccccc3s2)cc(CN2CCN(Cc3cc(-c4nc5ccccc5s4)cc(OC)c3O)CCN(C(C)C)CC2)c1O,,UV-vis spectrophotometric titration,aqueous NaCl 0.1 M,"20 µM, 25 °C, pH 3 to 11",,pKa3,8.5
CCOc1ccc(Nc2ncnc3[nH]c(/C=C/c4ccc(OC)c(OC)c4)nc23)cc1,,HPLC,"solution, dark",before light exposure,,purity,99.6%
COc1cccc(OC)c1-c1cc(C(=O)NC2(C(=O)O)C3CC4CC(C3)CC2C4)nn1-c1ccc(C(=O)N(C)CCOCCOCCN(C)C(=O)[C@H](CCCCNC(=O)[C@H](CC(C)C)NC(=O)C2OC2C(=O)O)NC(=O)CN2CCN(CC(=O)[O-])CCN(CC(=O)[O-])CCN(CC(=O)[O-])CC2)cc1C(C)C.[177Lu+3] (mixture of isomers),,,mouse HT-29 xenograft,"168 h, biodistribution",relative to: tumour over stomach,tumour-to-stomach ratio,25.1
CC(=O)N([O-])CCCCCNC(=O)CCC(=O)N([O-])CCCCCNC(=O)CCC(=O)N([O-])CCCCCN.[89Zr+4],,radio-TLC,aqueous buffer,"7 d, pH 7.2, 37 °C, 89Zr-labelled complex, with: FeCl3 100-fold excess",,intact complex,33.8 ± 1.6%
CCCN(C)c1cc(C(F)(F)F)nc(SCCC(=O)NCc2ccco2)n1,,,"Wistar rat, plasma","intraperitoneal, 25 mg/kg, 2 h post-dose",relative to: vehicle control,plasma urea,no effect
